{"data": "Measured values pooled from the literature", "note": "Each numbered part is a random draw from the data of one study; scales do not carry over between parts.", "chain of UniProt Q13177 (whole entry, looked up)": "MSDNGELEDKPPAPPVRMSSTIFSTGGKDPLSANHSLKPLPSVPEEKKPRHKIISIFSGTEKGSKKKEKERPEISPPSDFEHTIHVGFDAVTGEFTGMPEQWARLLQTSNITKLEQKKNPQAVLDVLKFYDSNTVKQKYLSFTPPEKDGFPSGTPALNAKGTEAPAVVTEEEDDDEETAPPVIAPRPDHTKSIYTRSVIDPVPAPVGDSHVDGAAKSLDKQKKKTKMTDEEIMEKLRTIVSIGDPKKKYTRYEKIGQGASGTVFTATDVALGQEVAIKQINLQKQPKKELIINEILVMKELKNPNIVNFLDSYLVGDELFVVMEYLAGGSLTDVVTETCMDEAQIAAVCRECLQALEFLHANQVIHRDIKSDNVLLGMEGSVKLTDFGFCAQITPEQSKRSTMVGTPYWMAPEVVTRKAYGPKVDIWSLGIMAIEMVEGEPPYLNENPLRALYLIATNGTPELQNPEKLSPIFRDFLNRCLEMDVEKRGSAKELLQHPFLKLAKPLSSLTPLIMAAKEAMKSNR"}
{"data": "Block 1", "target": "RING finger protein unkempt homolog, zinc fingers 1-6, SBP tag (UNK, Homo sapiens, UniProt Q9C0B0, residues 30-357)", "technique": "RNA Bind-n-Seq", "form": "RNA", "sample": "in vitro", "concentration": "100 nM", "setting": "RNA with constant flanks, ends assumed", "baseline": "input RNA pool", "direction": "higher = stronger binding", "chain of UniProt Q9C0B0 (30-357, looked up)": "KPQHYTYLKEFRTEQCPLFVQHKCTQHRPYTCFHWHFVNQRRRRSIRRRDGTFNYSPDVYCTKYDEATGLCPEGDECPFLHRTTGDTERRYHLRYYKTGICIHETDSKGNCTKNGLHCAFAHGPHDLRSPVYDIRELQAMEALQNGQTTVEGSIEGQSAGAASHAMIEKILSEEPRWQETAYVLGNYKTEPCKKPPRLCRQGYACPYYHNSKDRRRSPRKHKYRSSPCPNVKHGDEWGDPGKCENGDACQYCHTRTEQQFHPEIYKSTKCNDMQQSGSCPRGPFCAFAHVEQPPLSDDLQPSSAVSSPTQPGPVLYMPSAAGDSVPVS"}
{"Sequence": "GGGAGUUCUACAGUCCGACGAUCCCCUCUGAACCCCAUAUCUUCUGUUUCAUAAUGCAGAAGUAUUCUUUUCAAUUAUAUUGUCCGUGGACUUGUUUUAAUUUCCGAGAAACUUUGAGUACAGAUACUGUGAGCUUACAUUGACAACAGAGGAUUGAGCAUCA", "bound/input enrichment [ratio]": 0.645}
{"Sequence": "GGGAGUUCUACAGUCCGACGAUCAGCCGUUUUAAGCUUGUUUGCACAGUUCUUUUUUUCCAUUGGAAAUGGAAUUCAUUGCCUCCGGUCUUUUUAAACCGUGUAUUAUUAUCGUUGGGGCUGGCUCUAUGCUUGAAAACCAGUCAACAGAGGAUUGAGCAUCA", "bound/input enrichment [ratio]": 0.505}
{"Sequence": "GGGAGUUCUACAGUCCGACGAUCGGGUUUGGGGCCGAAGGGAGGGAGGGGGCAGGACAGUGUGGAAUCUCCCGGGUGUAUGGGCCGGCCGGGGGCACAGUCCGUUCUAAGUGGGCUUUUAUGCUAAAAGCCUCUGGGGAUAUCCAACAGAGGAUUGAGCAUCA", "bound/input enrichment [ratio]": 0.348}
{"Sequence": "GGGAGUUCUACAGUCCGACGAUCAGAAAAUUUUAACCAAGAAUCUGAAGGCCGAAAUACAGGACCAUGGUUAUCUUCCUCACUCCGAAACCGAUGCACACCUUUGUUCUCCCGAAGGAGGCGAGAGGGAAGAGAUGAAUCUUCCAACAGAGGAUUGAGCAUCA", "bound/input enrichment [ratio]": 0.229}
{"data": "Block 2", "target": "Prothrombin, mature alpha-thrombin (F2, Homo sapiens, UniProt P00734)", "technique": "aptamer microarray, sandwich", "form": "DNA with 2'F-ANA", "sample": "in vitro", "concentration": "200 nM", "setting": "whole 15-mer aptamer, many near background", "together with": "Cy3 exosite-II aptamer, 400 nM", "direction": "higher = stronger binding", "sequence": "GGTTGGTGTGGTTGG"}
{"Modification": "2'F-ANA at 1 2 3 4 5 7 8 14", "mean fluorescence intensity [a.u.]": 48.3}
{"Modification": "2'F-ANA at 1 5 7 9 11 13 14 15", "mean fluorescence intensity [a.u.]": 47.3}
{"Modification": "2'F-ANA at 1 2 3 4 5 6 7 8 9 10 11 13", "mean fluorescence intensity [a.u.]": 63.4}
{"Modification": "2'F-ANA at 3 6 11 15", "mean fluorescence intensity [a.u.]": 812}
{"Modification": "2'F-ANA at 2 3 7 8 13 15", "mean fluorescence intensity [a.u.]": 752}
{"Modification": "2'F-ANA at 2 3 4 7 8 10 11 12", "mean fluorescence intensity [a.u.]": 289}
{"Modification": "2'F-ANA at 2 3 4 5 6 7 9 12", "mean fluorescence intensity [a.u.]": 219}
{"Modification": "2'F-ANA at 2 3 4 5 6 8 12 14", "mean fluorescence intensity [a.u.]": 79.5}
{"data": "Block 3", "target": "Eukaryotic initiation factor 4A-I (EIF4A1, Homo sapiens, UniProt P60842, residues 1-406, full length assumed)", "technique": "RNA Bind-n-Seq", "form": "RNA", "sample": "in vitro", "concentration": "15 pmol", "setting": "4-mer, random 30-nt RNA, single round", "together with": "DMSO vehicle, 2 mM AMP-PNP", "baseline": "input library", "direction": "higher = stronger binding", "chain of UniProt P60842 (whole entry, looked up)": "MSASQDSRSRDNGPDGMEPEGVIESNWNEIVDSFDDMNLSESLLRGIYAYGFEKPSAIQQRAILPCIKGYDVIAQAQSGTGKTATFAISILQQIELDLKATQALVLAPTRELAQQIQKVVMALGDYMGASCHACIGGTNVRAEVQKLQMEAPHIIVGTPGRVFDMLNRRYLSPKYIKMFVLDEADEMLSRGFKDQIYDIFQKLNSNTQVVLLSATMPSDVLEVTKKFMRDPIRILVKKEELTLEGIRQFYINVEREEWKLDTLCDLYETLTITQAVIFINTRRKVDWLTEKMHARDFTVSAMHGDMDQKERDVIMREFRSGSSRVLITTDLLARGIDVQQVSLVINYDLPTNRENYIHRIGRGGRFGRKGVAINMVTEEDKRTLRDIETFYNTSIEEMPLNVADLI"}
{"Sequence": "GGAG", "4-mer enrichment [fold]": 1.14}
{"Sequence": "AGGU", "4-mer enrichment [fold]": 0.896}
{"Sequence": "AACA", "4-mer enrichment [fold]": 1.52}
{"Sequence": "AUGU", "4-mer enrichment [fold]": 0.816}
{"Sequence": "UCGG", "4-mer enrichment [fold]": 0.738}
{"Sequence": "CGGG", "4-mer enrichment [fold]": 0.746}
{"Sequence": "CCCC", "4-mer enrichment [fold]": 1.7}
{"Sequence": "CAAG", "4-mer enrichment [fold]": 1.26}
{"data": "Single results of other studies"}
{"SMILES": "COc1ccc(C(=O)Nc2sc3c(c2C(N)=O)CCCC3)cc1OC", "target": "Serine/threonine-protein kinase PAK 2 (PAK2, Homo sapiens, UniProt Q13177)", "assay": "enzyme activity, inhibitor", "conditions": "0.5 µM", "scale": "baseline: control", "quantity": "remaining activity", "value": "99.1%"}
{"note": "Excerpt of the above (block 2):"}
{"Modification": "2'F-ANA at 2 3 4 5 6 7 9 12", "mean fluorescence intensity [a.u.]": 219}
{"Modification": "2'F-ANA at 2 3 4 5 6 8 12 14", "mean fluorescence intensity [a.u.]": 79.5}
{"Modification": "2'F-ANA at 1 5 7 9 11 13 14 15", "mean fluorescence intensity [a.u.]": 47.3}
